Assay results collected from several papers.
Compare with care: the assays were run in different laboratories.
T1: G-quadruplex DNA, human telomere G4 (Homo sapiens); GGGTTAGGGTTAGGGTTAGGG
T2: G-quadruplex DNA, dimeric G-quadruplex; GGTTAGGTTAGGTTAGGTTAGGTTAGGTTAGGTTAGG
T3: G-quadruplex DNA, hybrid fold (Homo sapiens); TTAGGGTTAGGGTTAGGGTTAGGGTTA
T4: G-quadruplex DNA, hybrid-1 monomeric G4 (Homo sapiens); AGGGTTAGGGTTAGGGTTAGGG
T5: G-quadruplex DNA (Streptococcus pneumoniae); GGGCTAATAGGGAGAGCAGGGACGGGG
T6: G-quadruplex DNA, parallel (Homo sapiens); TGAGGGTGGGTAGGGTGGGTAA
T7: G-quadruplex DNA (Homo sapiens); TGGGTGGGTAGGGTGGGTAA
T8: G-quadruplex DNA, antiparallel fold (Homo sapiens); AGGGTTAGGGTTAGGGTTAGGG
T9: G-quadruplex DNA (Homo sapiens); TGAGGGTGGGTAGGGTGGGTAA
T10: G-quadruplex DNA, human telomeric (Homo sapiens); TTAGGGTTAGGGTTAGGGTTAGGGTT
T11: G-quadruplex DNA, c-KIT promoter (Homo sapiens); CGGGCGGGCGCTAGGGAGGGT
T12: G-quadruplex DNA, parallel G4; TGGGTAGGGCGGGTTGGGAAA
T13: G-quadruplex DNA, G-quadruplex (Homo sapiens); AGGGTGGGCTGGGAGGT
T14: G-quadruplex DNA dimer (Homo sapiens); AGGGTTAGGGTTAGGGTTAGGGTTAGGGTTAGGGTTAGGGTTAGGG

SMILES	target	assay	conditions	scale	quantity	result
CN(C)CCCn1c(=O)c2ccc3c(=O)n(CCCN(C)C)c(=O)c4c5[nH]c6ccccc6[nH]c5c(c1=O)c2c34	T1, G-quadruplex DNA, human telomere G4 (Homo sapiens)	SPR	pH 7.4, K+ 0.2 M	–	Kd	13.1 nM
Cc1ccc(Cn2cc3c(-c4ccc5c(c4)OCO5)nnc-3c3cc4c(cc32)OCO4)cc1	T2, G-quadruplex DNA, dimeric G-quadruplex	fluorescence titration	NaCl 100 mM	–	Kd	5150 nM
CCn1c(-c2cccc(-c3nc4ccccc4n3CC)n2)nc2ccccc21.[C-]#Cc1ccc(C[N+](C)(C)C)cc1.[Pt+2]	T3, G-quadruplex DNA, hybrid fold (Homo sapiens)	UV melting	–	–	binding	binds weakly
CN(C)CCCNc1cc2c3c(ccc4c3c1C(=O)N(CCCN(C)C)C4=O)C(=O)N(CCCN(C)C)C2=O	T4, G-quadruplex DNA, hybrid-1 monomeric G4 (Homo sapiens)	ITC	pH 7.0, 25 °C, KCl 100 mM	–	Kd	230 nM
CN(C)CCCOc1cc(C(=O)NCc2cn(Cc3c4ccccc4cc4ccccc34)nn2)nc(C(=O)NCc2cn(Cc3c4ccccc4cc4ccccc34)nn2)c1	T5, G-quadruplex DNA (Streptococcus pneumoniae)	FRET melting	5 µM, pH 7.4, potassium cacodylate 60 mM	relative to: DNA without compound, higher = more stabilisation	melting temperature shift	7 °C
C[n+]1ccc(/C=N/NC(=O)c2cccc(C(=O)N/N=C/c3cc[n+](C)c4ccccc34)n2)c2ccccc21	T6, G-quadruplex DNA, parallel (Homo sapiens)	Cy5 fluorescence quenching titration	2 nM, pH 7.2, KCl 100 mM	–	Kd	11.2 nM
CN(C)c1ccc2c(c1)[Si](C)(C)C1=CC(=[N+](C)C)C=CC1=C2c1cc(C(=O)NCCCCCC(=O)NCCOc2cc(C(=O)Nc3cc(OCCN4CCCC4)c4ccccc4n3)nc(C(=O)Nc3cc(OCCN4CCCC4)c4ccccc4n3)c2)ccc1C(=O)[O-]	T7, G-quadruplex DNA (Homo sapiens)	fluorescence titration	pH 7.4, KCl 100 mM, apparent, light-up	–	Kd	630 nM
CN1CCN(CCCNc2ccc3c(c2)/C(=C2/CCc4ccc(NCCCN5CCN(C)CC5)cc42)CC3)CC1	T8, G-quadruplex DNA, antiparallel fold (Homo sapiens)	1H NMR titration	–	–	binding	binds weakly
C[n+]1cccc2cc(/C=N/NC(=O)c3ccc4ccc5ccc(C(=O)N/N=C/c6ccc7c(ccc[n+]7C)c6)nc5c4n3)ccc21	T9, G-quadruplex DNA (Homo sapiens)	Cy5 fluorescence quenching titration	pH 7.2, KCl 100 mM, first transition	–	Kd	18 nM
Cc1ccc(-c2nc3n(ccc4nc(-c5ccc(C)cc5)c(C=NNC5=NCCN5)n43)c2C=O)cc1	T10, G-quadruplex DNA, human telomeric (Homo sapiens)	CD melting	DNA 10 µM, KCl 20 mM	–	melting temperature shift	1.3 °C
C[n+]1ccc(/C=N/NC(=O)c2cncc(C(=O)N/N=C/c3cc[n+](C)c4ccccc34)n2)c2ccccc21	T6, G-quadruplex DNA, parallel (Homo sapiens)	Cy5 fluorescence quenching titration	2 nM, pH 7.2, KCl 100 mM	–	Kd	13.9 nM
OCc1c(-c2ccccc2)nc2n1ccc1nc(-c3ccccc3)c(C=NNC3=NCCN3)n12	T11, G-quadruplex DNA, c-KIT promoter (Homo sapiens)	thiazole orange displacement, competitor, fluorescent intercalator displacement	KCl 20 mM	–	binding	binds weakly
CC1=[N+]2C(=C(c3ccc(CN=[N+]=[N-])cc3)c3ccc(C)n3[B-]2(F)F)C=C1	T12, G-quadruplex DNA, parallel G4	competitor, hemin competition, peroxidase activity	added: hemin 1 µM	–	binding	binds weakly
CCC1=C(C)c2cc3[nH]c(cc4nc(cc5[nH]c(cc1n2)c(C)c5CCC(=O)NCCOCCOCC(=O)NCCN(CC(=O)N[C@H](CCCCN)C(=O)N[C@H](CCCCN)C(N)=O)C(=O)Cn1cnc2c(=O)[nH]c(N)nc21)C(CCC(=O)O)=C4C)c(C)c3CC	T13, G-quadruplex DNA, G-quadruplex (Homo sapiens)	fluorescence titration	pH 7.4, KCl 50 mM, single-site fit	–	Kd	69.7 nM
CCN(CC)c1ccc2cc(-c3nc4c5cccnc5c5ncccc5c4[nH]3)c(=O)oc2c1.NCCN.[Pt+2]	T14, G-quadruplex DNA dimer (Homo sapiens)	CD melting	pH 7.0, KCl 100 mM	–	change in melting temperature	9 °C

Excerpt of the above:
SMILES	target	assay	conditions	scale	quantity	result
C[n+]1ccc(/C=N/NC(=O)c2cccc(C(=O)N/N=C/c3cc[n+](C)c4ccccc34)n2)c2ccccc21	T6, G-quadruplex DNA, parallel (Homo sapiens)	Cy5 fluorescence quenching titration	2 nM, pH 7.2, KCl 100 mM	–	Kd	11.2 nM
